# Experimental data collected from several papers.
# “And” joins repeats or separate records; there may be more than shown. ± gives the spread as reported.
Structure (SMILES),target or system,test,system,conditions,scale,measurement,value
CN(C)CCCn1c(=O)c2cc(Br)c3c(=O)n(CCCN(C)C)c(=O)c4c5[nH]c6ncccc6[nH]c5c(c1=O)c2c34,human telomeric G-quadruplex,FRET melting,,"0.25 µM, K+ 100 mM",,ΔTm,1.5 ± 0.7 °C
O=C(O)[C@H](O)[C@@H](O)[C@H](O)[C@H](O)CO[C@H]1O[C@H](CO)[C@H](O)[C@H](O)[C@H]1O,SAR11_0271 Candidatus Pelagibacter sp.,differential scanning fluorimetry,,concentration not given,higher = stronger binding,ΔTm,3.02 °C
CS(=O)(=O)N(Cc1ccccc1)c1ccc(C(=O)N/N=C/c2cccc(Oc3ccccc3)c2)cc1,NAADP receptor,"antagonist, fluo-3 fluorescence","Lytechinus pictus, egg homogenate","up to 6 µM, added: NAADP 30 to 50 nM",,NAADP-mediated Ca2+ release,inactive
CN(C)c1ccc2nc3ccc(=[N+](C)C)cc-3sc2c1,"GABAA receptor, human, γ2-containing",inhibitor,HEK293 cells,,,IC50,19000 to 49000 nM
NC(=O)c1c(NC(=O)CN2CCN(S(=O)(=O)c3ccc4c(c3)OCCO4)CC2)sc2c1CCCC2,NAADP receptor,"antagonist, fluo-3 fluorescence","Lytechinus pictus, egg homogenate","up to 6 µM, added: NAADP 30 to 50 nM",,NAADP-mediated Ca2+ release,inactive
CC(C(=O)Nc1ccc(C2CCCCC2)cc1)n1cncn1 (stereo not shown),,,dog liver microsomes,1 µM,,hepatic clearance,20 mL/min/kg
O=C(C#Cc1cn(Cc2ccccc2)c(=O)[nH]c1=O)NCc1ccccc1,MMP-9,"inhibitor, colorimetric",,20 µM,,remaining MMP-9 activity,104 ± 5%
O=c1c(O)c(-c2ccc(O)cc2O)oc2cc(O)cc(O)c12,bovine serum albumin,"methylglyoxal-mediated glycation, fluorescence",,concentration not given,,inhibition,93.4 ± 4.6%
NC/C(=C\F)COc1cccc(Cn2c(=S)[nH]c(=O)c3[nH]cnc32)c1,AOC4 (dog),"substrate turnover, AOC4 oxidation",,"concentration not given, unit not given",baseline: DMSO control,enzyme activity,1.01 and 1.02 and 1.09 and 1.07 and 1.11
CCCCCN,SAR11_0271 Candidatus Pelagibacter sp.,differential scanning fluorimetry,,concentration not given,higher = stronger binding,ΔTm,2.33 °C
CN1C(=O)/C(=C/c2ccccc2Cl)Sc2ccc(C(=O)N3CCN(Cc4ccc5c(c4)OCO5)CC3)cc21,NAADP receptor,"antagonist, fluo-3 fluorescence","Lytechinus pictus, egg homogenate","up to 6 µM, added: NAADP 30 to 50 nM",,NAADP-mediated Ca2+ release,inactive
O=c1cc(-c2ccccc2)oc2cc(O)c(O)c(O)c12,bovine serum albumin,"methylglyoxal-mediated glycation, fluorescence",,concentration not given,,inhibition,71.9 ± 5.3%
Oc1ccccc1-c1n[nH]cc1-c1ccnc2ccccc12,POM1 (Candida albicans),"kinase binding, MIB/MS competition",Candida albicans lysate,1 µM,baseline: DMSO,log2 fold change,-0.05
CN(C)CCCn1c(=O)c2ccc3c(=O)n(CCCN(C)C)c(=O)c4c5[nH]c6cc(C(=O)O)ccc6[nH]c5c(c1=O)c2c34,human telomeric G-quadruplex,FRET melting,,"0.25 µM, K+ 100 mM",,ΔTm,4.2 ± 0.3 °C
CCCCCN1C[C@H](O)[C@@H](O)[C@H](O)[C@@H]1CO,GBA2 mouse,"enzyme activity, inhibitor",cell lysate,added: 4-MU-β-D-glucopyranoside,,IC50,6 nM
O=C(NCC1CCOCC1)c1ccc(C2CCCCC2)cc1,,liver microsome stability,human liver microsomes,"1 µM, without NADPH",,hepatic clearance,3.9 mL/min/kg
CC(=O)O[C@H]1C(=O)[C@@]2(C)[C@H]([C@H](OC(=O)c3ccccc3)[C@]3(O)C[C@H](OC(=O)[C@H](O)[C@@H](NC(=O)c4ccccc4)c4ccccc4)C(C)=C1C3(C)C)[C@]1(OC(C)=O)CO[C@@H]1C[C@@H]2O,tubulin (microtubules),"binding, radioligand saturation binding",J774.2,"60 min, 37 °C, 20% horse serum",,Kd,200 nM
C[N+](C)(C)CCCn1c(=O)c2ccc3c(=O)n(CCC[N+](C)(C)C)c(=O)c4c5[nH]c6ccccc6[nH]c5c(c1=O)c2c34.[I-].[I-],human telomeric G-quadruplex,FRET melting,,"0.25 µM, K+ 100 mM",,ΔTm,8.5 ± 0.6 °C
COc1ccc([C@@H]2CC(=O)c3c(O)cc(O)cc3O2)cc1O,bovine serum albumin,"methylglyoxal-mediated glycation, fluorescence",,concentration not given,,inhibition,51.6 ± 5.42%
CCn1c2ccccc2c2cc(NC(=O)CN3CCN(S(=O)(=O)c4cc(Cl)ccc4Cl)CC3)ccc21,NAADP receptor,"antagonist, fluo-3 fluorescence","Lytechinus pictus, egg homogenate","up to 6 µM, added: NAADP 30 to 50 nM",,NAADP-mediated Ca2+ release,inactive
O=S(=O)(NCCNC/C=C/c1ccc(Br)cc1)c1cccc2cnccc12,PKA,inhibitor,mouse zygotes,"20 µM, injection, hCG, 120 h post, early embryonic development",,embryos at morula stage,11.8% and 0% and 15%
Cc1ccc(-c2cc(C(=O)NCC(C)(C)CNC(=O)c3cc(-c4ccc(C)o4)nc4ccccc34)c3ccccc3n2)o1,NAADP receptor,"antagonist, fluo-3 fluorescence","Lytechinus pictus, egg homogenate","up to 6 µM, added: NAADP 30 to 50 nM",,NAADP-mediated Ca2+ release,inactive
c1coc(-c2n[nH]cc2-c2ccnc3ccccc23)c1,AKL1 (Candida albicans),"kinase binding, MIB/MS competition",Candida albicans lysate,1 µM,baseline: DMSO,log2 fold change,-0.21
O=C(COC(=O)c1cccc(Oc2ccccc2)c1)COC(=O)c1cccc(Oc2ccccc2)c1,NAADP receptor,"antagonist, fluo-3 fluorescence","Lytechinus pictus, egg homogenate","up to 6 µM, added: NAADP 30 to 50 nM",,NAADP-mediated Ca2+ release,inactive
CC(C)NCC(O)c1ccc(O)c(O)c1 (stereo not shown),β2 adrenergic receptor E122Q (human),PRESTO-Tango luciferase,HTLA cells,10 nM,,β-arrestin2 recruitment,124 RLU and 127 RLU and 177 RLU and 296 RLU and 140 RLU and 154 RLU

# Some of these lines once more:
Structure (SMILES),target or system,test,system,conditions,scale,measurement,value
CCCCCN,SAR11_0271 Candidatus Pelagibacter sp.,differential scanning fluorimetry,,concentration not given,higher = stronger binding,ΔTm,2.33 °C
O=C(C#Cc1cn(Cc2ccccc2)c(=O)[nH]c1=O)NCc1ccccc1,MMP-9,"inhibitor, colorimetric",,20 µM,,remaining MMP-9 activity,104 ± 5%
O=C(O)[C@H](O)[C@@H](O)[C@H](O)[C@H](O)CO[C@H]1O[C@H](CO)[C@H](O)[C@H](O)[C@H]1O,SAR11_0271 Candidatus Pelagibacter sp.,differential scanning fluorimetry,,concentration not given,higher = stronger binding,ΔTm,3.02 °C
